Results collected from several papers.
Compare with care: the assays were run in different laboratories. Several values in a cell are separate wells, animals, samples, runs or records. Numbers after ± are the reported error.

CC(C)(C)c1cc(C(C)(C)C)c(NC(=O)c2c[nH]c3ccccc3c2=O)cc1O gave an IL-15 level of 4.56e+06 pg/mL (Caco-2 CFTR knockout; ELISA; concentration not given).
C=Cc1c2[n-]c(c1C)/C=c1\[n-]/c(c(C)c1C=C)=C\c1[n-]c(c(CCC(=O)O)c1C)/C=c1\[n-]c(c(C)c1CCC(=O)O)=C2.[Sn+4] has a fold change of 2.89 (SH-SY5Y; RNA-seq, measured: ANKRD1 mRNA; 5 µM, 5 h; reference: untreated cells).
With Cc1c(C(=O)O)ccc2c3n(nc12)[C@@H]1[C@H](C3)N(CC2CC2)[C@@]2(C(=O)Nc3cc(Cl)ccc32)[C@H]1c1cccc(Cl)c1F the IC50 was 0.107 µM (highly sensitive cancer cell lines; cell viability, PRISM pooled screen; median).
For C=CC(=O)c1cccnc1Nc1cccc(C(F)(F)F)c1, “TEAD reporter activity” read 55.9 ± 2.2% (MCF7; firefly luciferase reporter; 50 µM, 6 h; reference: vehicle).
For Cc1cccc(-c2[nH]c(CNc3ccccc3F)nc2-c2ccc3ncnn3c2)n1, the relative viability was 0.05 (bone marrow CD138+ myeloma cells; XTT; human; 3 µM; reference: untreated).
The Emax of Cc1cc(Nc2ncc(Cl)c(Nc3ccccc3S(=O)(=O)C(C)C)n2)c(OC(C)C)cc1C1CCNCC1 is reported as 100% (Ba/F3 EML4-ALK v1; cell viability).
COc1ccc(NC(=O)c2c(Nc3ccccc3)sc(C#N)c2NC(=O)CNc2ccc(Cl)cc2)cc1 — result for “early apoptotic cells”: 5.47 ± 0.42% (HepG2; annexin V-FITC/PI; concentration not given).
Cn1cc(Nc2nccc(-c3ccc4c(c3)CN(C3COC3)CC[C@H]4NC(=O)c3cn(C(C)(C)C)nn3)n2)cn1: “pathway activation z-score” 1.09 (mouse splenic B cells; measured: 3-phosphoinositide biosynthesis; 30 mg/kg, IgD-activated in vivo; reference: vehicle, direction not given).
The reporter activity of Cc1cc(NC(=O)c2cccc(NC(=O)/C=C/CN(C)C)c2)ccc1Nc1nccc(-c2cccnc2)n1 is reported as 0.368 (HEK293 AP1 reporter cells; AP-1 reporter gene, inhibitor; 10 µM, 6 h, unit not given, with: PMA; reference: PMA alone).
Cl.Cl.NCCNS(=O)(=O)c1ccc(Cl)c2ccncc12 — result for “relative cell number”: 96.6% (SK-OV-3; ATP; 3D gellan gum culture; 0.01 µM, 4 days; reference: untreated).
The EC50 of CCn1cc(-c2cc(Cn3ccoc3=N)cc3c2CCN([C@@H](C)c2cc(OC)ccn2)C3=O)c(C(F)(F)F)n1 is reported as greater than 30 µM (SNU761; cell growth; 120 h).
CN1C(=O)C2(NN=C(c3ccccc3)S2)c2ccccc21 (centres unmarked) has a viability loss of roughly 40% (SK-N-BE(2) and SK-N-SH neuroblastoma; MTT; 10 µM, 24 h).
Nc1ncnc2c1ncn2[C@@H]1O[C@H](CO)[C@@H](O)[C@H]1O — result for “log2 fold change”: 7.1 and 8.7 and 7.4 (activated human T cells; measured: carbamoyl aspartate; 50 µM; reference: DMSO).
For CC(C)(C)C(=O)Oc1ccc(S(=O)(=O)Nc2ccccc2C(=O)NCC(=O)O)cc1, “citrullinated histone H3 per neutrophil” read 10.2 and 7.79 and 6.34 and 7.48 (human peripheral blood neutrophils; NET formation; 500 µM, with: MPO-ANCA immune complex, C5a).
The TGI of C#C[C@@]1(O)[C@@H](CO)O[C@@H](n2cc(Br)c3c(N)ncnc32)[C@@H]1O is reported as 14.1 µM and 12.2 µM (Malme-3M; SRB; NCI-60 screen).
With CCn1cc(-c2cc(Cn3ccnc3)cc3c2CCN([C@H](c2cc(OC)ccn2)C2CC2)C3=O)c(C(F)(F)F)n1 the EC50 was greater than 30 µM (U266B1; cell growth; 120 h).
The EC50 of O=C1C(O)=C([C@H]2CC[C@H](c3ccc(Cl)cc3)CC2)C(=O)c2ccccc21 is reported as 0.16 µM (Toxoplasma gondii; parasite growth, luciferase reporter; HFF host cells, tachyzoites; 72 h).
CCOC(=O)CSc1nc(-c2ccc(Cl)cc2)c2c(NC(=O)c3ccccc3)nnc-2[nH]1 gave a growth percent of 93.9% (MDA-MB-231/ATCC; NCI60 SRB; 10 µM).
Under “log2 fold change”, Cn1cc(-c2ccc(-c3cncc(Cl)c3N3CCC4(CCNC4=O)CC3)cc2)cn1 is recorded as -2.34 (COLO 205; gene expression, microarray, measured: TFRC mRNA; concentration not given, 2 h; reference: untreated cells).
CCCCCCCC(=O)Oc1c(C)c(O)c(C(=O)/C=C/c2ccccc2)c(OC)c1C gave a selectivity index of 1.22 (FaDu; SRB; reference: normal over FaDu IC50).
With O=C(c1ccc(OCCN2CCCCC2)cc1)c1c(-c2ccc(O)cc2)sc2cc(O)ccc12 the EC50 was 8.67 µM (Toxoplasma gondii; parasite growth; HFF, bradyzoite, glutamine-induced).
For c1ccc2[nH]ccc2c1, “mRNA level, LS mean” read 157 counts per million (HCT-8; RNA-seq, measured: ASNS; concentration not given).
CC(=O)c1nn(-c2ccc(Cl)cc2)/c(=N/N=C(\C)c2ccc(NC(=O)c3ccc(Cl)cc3)cc2)s1 gave a toxicity of 0.129% (MCF7; 0.625 µM).
